Assay results of several laboratories.
Every numbered part comes from another study and shows a few of its results, in no order.

Set 1
Target: Histone acetyltransferase KAT6A, both winged helices, GST fusion (KAT6A, Homo sapiens, UniProt Q92794, residues 1-181)
Technique: protein binding microarray
Form: double-stranded DNA, one strand shown
Matrix: in vitro
Tested at: not given
Setting: 8-mer, flanks averaged, mean of 2 arrays, mostly near background
Reference: not given
Reading: higher = stronger binding
Construct (chain): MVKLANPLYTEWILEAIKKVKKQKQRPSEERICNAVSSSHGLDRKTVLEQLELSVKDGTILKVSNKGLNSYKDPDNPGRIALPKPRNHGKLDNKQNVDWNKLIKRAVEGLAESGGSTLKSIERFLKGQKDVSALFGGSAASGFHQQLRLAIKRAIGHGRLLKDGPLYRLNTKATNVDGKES
Sequence | E-score
GCTGCATA | -0.0774
ATCTCGTG | -0.0709
GGGACTAA | -0.129
AGAGGTGA | -0.182
GCTAGTAC | 0.0579
CGACGGCA | 0.285
ACAGTGTG | -0.0622
CATTGGGG | -0.182
ATCGAGCG | 0.224
CCGGTACC | 0.112
AGAGTTAC | -0.101
TGCAGCCA | -0.0777
TAATGTAA | -0.0214

Set 2
Target: RNA binding protein fox-1 homolog 2, RRM domain, GST-SBP tag (RBFOX2, Homo sapiens, UniProt O43251-10, residues 100-194)
Technique: RNA Bind-n-Seq
Form: RNA
Matrix: in vitro
Tested at: 365 nM
Setting: natural RNA segment, single round, ends assumed
Reference: no-protein control
Reading: higher = stronger binding
Residues (chain): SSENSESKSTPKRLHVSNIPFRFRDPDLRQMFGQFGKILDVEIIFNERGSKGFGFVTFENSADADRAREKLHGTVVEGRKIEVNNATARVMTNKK
Sequence | RBNS enrichment (R)
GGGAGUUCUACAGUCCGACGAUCUGCCACACAGGGCAAUCCAGAUUUAGAUUAAAGAAAGGAUACACAGACAUUAAUCUGCAACAGGUCUUGUUCAUACUCAUAAAGUGUACCGUAUUAAGAAAUCAGAACAGUGGAAUUCUCGGGUGCCAA | 0.262
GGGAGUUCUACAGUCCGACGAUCGCUCUUCAAGAAUACAACAACUAAGAAAAGGAAGUUUCCAGAAAAGAAGUUAACAUGAACUCUUGAAGUCACACCAGGGCAACUCUUGGAAGAAAUAUAUUUGCAUAUUGUGGAAUUCUCGGGUGCCAA | 0.274
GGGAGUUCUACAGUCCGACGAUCGGUGCUGAUGGAGGGAGGGGGAAGUCGAAGGAUGCUCUUUCCCUUUUCUGUUUAGGAAGAAGUGGUACUAGUGUGGUGUGUUUGCUUGGAAAUUCCUUGCCCCACAGUUGUGGAAUUCUCGGGUGCCAA | 0.523
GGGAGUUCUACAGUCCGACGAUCUGCUGUAGGAUUAAUUCGAAAAUAGGCAGAAUUCCAUUCCUCCCAAGGUGGCAAAAAUUAGCUAUACUGAUGUAAUUGUCAUUUACCUGGGUAUGAAUUCCCUGACACACUGGAAUUCUCGGGUGCCAA | 0.428
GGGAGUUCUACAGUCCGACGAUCACAAGUUAGUUUGCUUUAAGCAGGUAACUUUUUUUGUAAUGGAAGAAAUGCACUACAAAGUUAAGACAGAUUUUUGCUAAGUGCAGGAGGCCCUUUAUUAUUGCUGCAGAUGGAAUUCUCGGGUGCCAA | 0.342
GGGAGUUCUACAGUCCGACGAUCCUGCCUUAGAAAGUUAAUAUAUUUUAAAUUAUUUUAAAAGAAACUCAACAUCUUAUUCUUUGGCCUUUCUUAAUUGAUGCUUUAUGGAGGCAGUGUUAACAUUGUACAGUUGGAAUUCUCGGGUGCCAA | 0.471
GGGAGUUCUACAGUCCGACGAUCUUUCUGGGAAGAGAUCAAAAUGGAGUCUCCUUACCAUGGACAAUACAUGCAAAGCAAUAUCUUGUUCAGGUUAGUACCCGCAAAACGGGACAUAGUAUGUGACAAUCUGCUGGAAUUCUCGGGUGCCAA | 0.401
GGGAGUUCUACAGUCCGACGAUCAAUCGGAUUAACUGGAAAAUAUAUCUGAAUUCAACUGCUGACUAUAAAUGGUAUUCUAAUAAAAUUGUGUACUAUCCUGUGUGCUUAGUUUUAAGAUCAACCAAUAGAUAUGGAAUUCUCGGGUGCCAA | 0.367
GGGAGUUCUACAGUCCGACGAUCAACUAACAAACAUUUGUUUCCAAGCCUGUCAUUAAGAGUCUGCAUCAAGAGAUUUGUCCUCCUUGGGGGACCACUGGAUCAUUCCAGAUUUCUUGUGAUUUUUCUAUUGUUGGAAUUCUCGGGUGCCAA | 0.341

Set 3
Target: Prothrombin, mature alpha-thrombin (F2, Homo sapiens, UniProt P00734)
Technique: aptamer microarray, sandwich
Form: DNA with 2'F-ANA
Matrix: in vitro
Tested at: 200 nM
Setting: whole 15-mer aptamer, many near background
Together with: Cy3 exosite-II aptamer, 400 nM
Reading: higher = stronger binding
Sequence: GGTTGGTGTGGTTGG
Modification | mean fluorescence intensity [a.u.]
2'F-ANA at 2 4 10 13 | 76.1
2'F-ANA at 1 4 5 6 7 11 13 14 | 45.5
2'F-ANA at 5 6 7 8 11 12 14 15 | 48.3
2'F-ANA at 2 5 6 9 10 11 12 13 14 15 | 52.7
2'F-ANA at 1 2 3 4 5 6 8 11 12 13 14 15 | 56.5
2'F-ANA at 1 3 6 7 12 14 15 | 106
2'F-ANA at 1 2 4 6 7 8 13 | 87.4
2'F-ANA at 2 3 4 5 6 7 8 9 11 | 611
2'F-ANA at 2 5 6 10 11 12 13 14 | 55.3
2'F-ANA at 1 2 4 5 6 7 10 11 12 13 14 15 | 75.8
2'F-ANA at 6 8 9 10 11 12 13 14 | 103
2'F-ANA at 1 3 5 6 8 9 10 11 | 48.7
2'F-ANA at 1 2 4 5 6 8 10 11 12 13 14 | 48.9
2'F-ANA at 2 3 4 6 8 9 10 12 14 15 | 156
2'F-ANA at 1 4 5 6 9 11 12 14 15 | 47.1
2'F-ANA at 2 3 8 9 11 12 14 15 | 440
2'F-ANA at 3 4 8 9 11 12 13 15 | 663

Single results of other studies
Molecule | target or system | test | test system | conditions | scale | endpoint | value
PhoQ, residues 284 288 289 292 302 303 SCCLKL | PhoP, residues 12 14 15 18 19 ICWRQ (Escherichia coli, UniProt P23836) | Sort-seq, measured: YFP reporter | E. coli | PhoQ-PhoP variant library, together with: 10 µM Mg2+ | reference: high Mg2+ state, higher = stronger signaling | fold induction | 3.17
PTBP1 (Homo sapiens, UniProt P26599) | ANAPC5 (Homo sapiens, UniProt Q9UJX4) | cross-linking MS | cell fractions | together with: DSSO | – | cross-linked residues | K454 to K189

A few entries again (set 3):
Modification | mean fluorescence intensity [a.u.]
2'F-ANA at 1 2 4 5 6 7 10 11 12 13 14 15 | 75.8
2'F-ANA at 6 8 9 10 11 12 13 14 | 103
2'F-ANA at 1 3 5 6 8 9 10 11 | 48.7
2'F-ANA at 1 2 4 5 6 8 10 11 12 13 14 | 48.9
2'F-ANA at 2 3 4 6 8 9 10 12 14 15 | 156
2'F-ANA at 1 4 5 6 9 11 12 14 15 | 47.1
2'F-ANA at 2 3 8 9 11 12 14 15 | 440
